Measured values of several laboratories.
Each numbered part is a random draw from the data of one study; scales do not carry over between parts. Positions count from the first letter of the parent shown.

Study 1
Target: CCNA2, cyclin fold, Cln2 fusion (human)
Technique: yeast growth competition, sequencing
Sample: yeast
Notes: strong parent motif
Reference: not given
Reading: higher = stronger binding
Starting sequence: E2F1 docking peptide (human); PPVKRRLDFETDH; partner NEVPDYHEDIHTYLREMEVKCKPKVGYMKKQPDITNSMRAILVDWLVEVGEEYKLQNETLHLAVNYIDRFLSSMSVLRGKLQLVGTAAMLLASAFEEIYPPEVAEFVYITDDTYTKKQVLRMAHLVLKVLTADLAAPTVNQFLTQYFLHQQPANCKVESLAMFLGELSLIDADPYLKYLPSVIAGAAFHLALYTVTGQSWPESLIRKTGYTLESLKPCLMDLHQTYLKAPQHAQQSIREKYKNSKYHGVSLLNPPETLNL
Substitution | normalised enrichment score
PPVKRRLSFETDH [D8S] | 5.07
PPFKRRLDFETDH [V3F] | 4.74
PPVARRLDFETDH [K4A] | 4.9
PPVVRRLDFETDH [K4V] | 5.31
PPVGRRLDFETDH [K4G] | 5
PIVKRRLDFETDH [P2I] | 6.2
PPVKRILDFETDH [R6I] | 4.03
PPVKRRLDFFTDH [E10F] | 6.45
PPVKRRLDFEIDH [T11I] | 5.85
PPWKRRLDFETDH [V3W] | 5.36
PPVNRRLDFETDH [K4N] | 5.12
PPVKRRLDMETDH [F9M] | 5.3
PPVKRRLDFETAH [D12A] | 6.39
PPVKRRLDFVTDH [E10V] | 6.2
PRVKRRLDFETDH [P2R] | 6.67
PPVKRNLDFETDH [R6N] | 3.63
PPVKIRLDFETDH [R5I] | 3.41
PPVKRMLDFETDH [R6M] | 5.63
PPVKRRLDKETDH [F9K] | 0.155
PPVKRRMDFETDH [L7M] | 2.15
PPVKRRLDFEDDH [T11D] | 6.06
PPVKVRLDFETDH [R5V] | 3.54
PPTKRRLDFETDH [V3T] | 6.06
PPVKRRLDFQTDH [E10Q] | 6.36
PPVKRRPDFETDH [L7P] | 0.175

Study 2
Target: Histone acetyltransferase KAT6A, both winged helices, GST fusion (KAT6A, Homo sapiens, UniProt Q92794, residues 1-181)
Technique: protein binding microarray
Form: double-stranded DNA, one strand shown
Sample: in vitro
Tested at: not given
Notes: 8-mer, flanks averaged, mean of 2 arrays, mostly near background
Reference: not given
Reading: higher = stronger binding
Residues (chain): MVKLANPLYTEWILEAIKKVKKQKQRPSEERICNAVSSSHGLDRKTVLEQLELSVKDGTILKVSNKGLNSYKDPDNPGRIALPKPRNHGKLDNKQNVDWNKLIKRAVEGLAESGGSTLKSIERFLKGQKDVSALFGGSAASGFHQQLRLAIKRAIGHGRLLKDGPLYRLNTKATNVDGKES
Strand | E-score
TGCCTGAA | -0.107
AAGTTGCT | -0.175
AAACGATT | -0.0117
ATCATGAA | -0.0679
CGTTGGCC | 0.1
CAACTCTA | -0.155
AGCAGAGA | -0.172
ATCGTTGA | -0.173
CAATGATA | -0.0817
CGTGCAGC | 0.122
TAGCTTGA | -0.106
AGGCAATA | -0.163
TCTATCCA | -0.058
AGGTCAAC | -0.083
AAGTCGCG | 0.212
AACATGTG | -0.00439
TCTTCCAA | -0.154
GAGTCCCC | -0.255
CGTGGGAA | -0.00713
GAGACTTA | -0.168
GTCGATGA | 0.0249
AACATTGT | 0.0719
ACACGACC | 0.00229
ACTTCAAT | -0.0162
GTCGTTGA | -0.125

Study 3
Target: RNA binding protein fox-1 homolog 2, RRM domain, GST-SBP tag (RBFOX2, Homo sapiens, UniProt O43251-10, residues 100-194)
Technique: RNA Bind-n-Seq
Form: RNA
Sample: in vitro
Tested at: 365 nM
Notes: natural RNA segment, single round, ends assumed
Reference: no-protein control
Reading: higher = stronger binding
All sequences stand within: GGGAGUUCUACAGUCCGACGAUC … UGGAAUUCUCGGGUGCCAA
Residues (chain): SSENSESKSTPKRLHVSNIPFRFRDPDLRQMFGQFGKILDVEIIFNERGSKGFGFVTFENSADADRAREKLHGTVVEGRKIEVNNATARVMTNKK
Strand | RBNS enrichment (R)
AAAUUUUUUUUGAAUGUGUGGAAGUAAUUUUAGUAUAAUUAGAUUUUUUCCAUAUUUUUGAAAGAUUUUUCAGAUGUGAACAUUAAAAAUAGGGAUUAAAUGUCUAGGCU | 1.29
UUCUAAUUAUGAAGAGCGUACCAGAAGUCUGUAUGAUAUUAGUGUCAUAUUUCAUUCAAAUGCCAAUUAAUAAAGCAAAGCUGACUGAAGUUGCCUCCCCUGGUGUUCCA | 0.171
CUGCCUGGCCUCCAAUUUGUAAUCCUCCUGCCUCAGCCUUGAGUGCUGGAAUUGAGUGUGUGCCACCUUGACCAGCCUUUUGUUUCCUUUUUAAUACUAAACCUUACAGU | 0.514
UCUACUAAUUAUGGGCUAAAGAGUUUCUUAUAAUAAAAUAUCCUCUAAGAUUAUAAAAUAAGCAGGUACUUUAUUUACUAUGUUGUACUCUGCAGUGUUGAUUUUUUAAA | 0.787
AUUGUGUUCACUACAACAGGAUAGGGACAUCAGACAGCCCCAGAAACCCCUUCCAGAUCUGAUAUGGGACUAUUAAUUUUUAUGCUGUUAAUUGGUAUUCAUUCACAAUG | 0.314
AAGGAAAUAUCAUUUAUUUAAGCAGCCUAUCAGUGAUUGCCAUUAGACUGUUGAAUACUGUUACUUUUAUAUAGAACCCAAGGAAUGCCUUCCUGUCAUAUUUUAGCCAA | 0.869
AGAAGUGCUGGGAAGAAAAAGCUAUGUGGUUUCUACCAUUUUAGCAGGAUAAAGAGGAUAACUCCUUCCAUUAGCAAAUUUUACAGUUGUUAACAGUACUCUGCCAUAUU | 0.234
UAGCAUUGAUAUAUAUAUAUUAUAUAUCACCCUUUAGAUCUUGAUUUCUUGGUCAUUUCUCAACCUGAGGUGCAUAGCAUAUUCCCACAUUCCAUUUUGGUAGCAAUAUG | 0.328
CAAUGUGCCAGUCGGCUCUUUGCACUCGCCUUGUCCUAUAUAUCCGUACGGAGGUGUGCAAUCCUGUGUCAGUCGCCUUGUGACACUGAAGUGGAUGAGUUAUAGAGGAG | 0.485
UCCGGCCCCGGUUCCCCUCAGGUCCCUGUGCUCUGGUCAUUGCAGUGAUGGCUCACUCAGACUGUCCUGGCAGCCAAAGUGACUUUCUGGAGCUCUGCUUGCCUGUCCCC | 0.265
GCAAUAUAAUAGUCAAUGAACUUUCAGUUUAAAUUGUGUACAUUUUUAAAUUGUAAGAUUUUUACUGUAUAUUGAUGCAUAGUGUGAUUCAAUAAAUUGCUUGUAAUUUA | 0.537
UGAAUGGUUUUCCCAGUUCCCACUCCACAUGGGGAAGUUGAAUGAAUGCACACCUGCUGCUCACUUCUUGUGAGGCUGCCUUUUGUGAUCAAAUAACAGGAAGUUCUGCU | 0.482

Study 4
Target: Sal-like protein 4, full length isoform A (SALL4, Homo sapiens, UniProt Q9UJQ4, residues 1-1053)
Chain of UniProt Q9UJQ4 (whole entry, looked up): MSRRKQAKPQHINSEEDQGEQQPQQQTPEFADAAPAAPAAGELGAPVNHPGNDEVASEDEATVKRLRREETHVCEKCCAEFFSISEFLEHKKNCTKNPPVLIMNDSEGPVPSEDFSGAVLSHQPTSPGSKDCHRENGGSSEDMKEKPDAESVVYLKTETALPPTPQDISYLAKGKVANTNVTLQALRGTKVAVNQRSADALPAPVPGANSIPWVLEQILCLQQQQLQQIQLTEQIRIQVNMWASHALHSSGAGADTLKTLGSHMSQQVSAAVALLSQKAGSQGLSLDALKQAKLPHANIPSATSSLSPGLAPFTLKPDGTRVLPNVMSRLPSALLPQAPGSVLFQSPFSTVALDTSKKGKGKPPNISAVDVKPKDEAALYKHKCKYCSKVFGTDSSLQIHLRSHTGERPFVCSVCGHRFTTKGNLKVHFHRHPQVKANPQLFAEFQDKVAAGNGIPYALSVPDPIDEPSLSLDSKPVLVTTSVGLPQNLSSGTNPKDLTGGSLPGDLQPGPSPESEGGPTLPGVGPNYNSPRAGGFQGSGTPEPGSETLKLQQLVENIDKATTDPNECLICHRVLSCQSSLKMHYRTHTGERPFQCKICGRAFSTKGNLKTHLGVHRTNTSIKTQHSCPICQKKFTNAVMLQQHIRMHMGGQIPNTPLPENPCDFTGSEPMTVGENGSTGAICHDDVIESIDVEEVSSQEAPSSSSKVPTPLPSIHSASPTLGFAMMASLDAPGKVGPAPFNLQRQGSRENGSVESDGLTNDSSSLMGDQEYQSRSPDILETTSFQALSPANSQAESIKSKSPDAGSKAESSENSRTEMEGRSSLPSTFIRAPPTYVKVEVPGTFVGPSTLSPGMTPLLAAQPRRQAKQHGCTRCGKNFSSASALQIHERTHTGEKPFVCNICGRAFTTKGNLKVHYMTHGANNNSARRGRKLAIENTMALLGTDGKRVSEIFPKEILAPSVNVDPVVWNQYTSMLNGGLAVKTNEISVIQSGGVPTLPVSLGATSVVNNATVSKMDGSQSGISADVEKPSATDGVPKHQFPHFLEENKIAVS
Technique: universal PBM
Form: double-stranded DNA, one strand shown
Sample: in vitro
Tested at: 600 nM
Notes: 8-mer, flanks averaged, mean of replicates
Reading: higher = stronger binding
Strand | E-score
ATGCGGCA | -0.157
AGAGAGCA | -0.15
GGGTTCAA | -0.1
AGCCAATA | 0.15
GGTTCTAA | 0.0843
AGTCTCCC | -0.213
ACAGGCGC | -0.253
AAAGACAC | 0.0617
ATCTGAAT | 0.138
CGTTGGGC | -0.287
CCTCGGAC | -0.197
TGACCTAA | 0.102
ACGCCGTC | -0.208
TAAGGTAA | 0.185
ATCATCCG | -0.232
CTCGCGAG | -0.237
GAGATTGA | 0.123
ACACCAGC | -0.288
CATACCAC | -0.0213
AGCGAAGA | 0.039
AAGGAGGT | -0.171
ATGCTTGA | 0.0994

Study 5
Target: Interferon regulatory factor 3, full length, phosphomimetic (IRF3, Homo sapiens, UniProt Q14653, residues 1-427, S386D/S396D/S398D/S402D/T404D/S405D)
Technique: protein-binding microarray
Form: double-stranded DNA, one strand shown
Sample: in vitro
Tested at: 2540 nM top
Notes: 60-bp whole probe
Added: salmon DNA 0.4 mg/ml
Reference: random background probes
Reading: higher = stronger binding
All sequences stand within: GCCTAGCAC … GTCTTGATTCGCTTGACGCTGCTG
Construct (chain): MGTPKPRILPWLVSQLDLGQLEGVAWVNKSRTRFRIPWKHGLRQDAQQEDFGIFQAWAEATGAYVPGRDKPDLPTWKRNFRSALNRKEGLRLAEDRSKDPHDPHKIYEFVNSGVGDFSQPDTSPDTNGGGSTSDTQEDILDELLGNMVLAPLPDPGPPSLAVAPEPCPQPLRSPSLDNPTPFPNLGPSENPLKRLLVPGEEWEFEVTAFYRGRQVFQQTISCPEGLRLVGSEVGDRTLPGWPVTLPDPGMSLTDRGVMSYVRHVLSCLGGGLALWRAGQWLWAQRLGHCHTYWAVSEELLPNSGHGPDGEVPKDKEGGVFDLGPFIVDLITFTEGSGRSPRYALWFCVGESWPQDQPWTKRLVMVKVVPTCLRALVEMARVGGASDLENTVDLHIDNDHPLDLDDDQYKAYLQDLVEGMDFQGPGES
Strand | fitted relative affinity
AAATCTAAAAAGTCTCTGGGAGTGCTA | -0.108 z-score
TCAAGTTTCTCTTTCCTACTGTGCTAG | 6.19 z-score
GACGGTCTCCCACTGCTGACGTGCTAG | 0.786 z-score
GACGGACTGGGGTATAGGGACGTGCTA | -0.725 z-score
TTAGGTATCCTTTTCCTTTTGTGCTAG | 8.65 z-score
GACGGACTGGACACTGGCGACGTGCTA | -0.712 z-score
GACGAACTGGGGACTGGGGACGTGCTA | -0.65 z-score
GACGATATCGGGACTGGGGACGTGCTA | 0.0181 z-score
AACGATCTCAGTATCGAGACGTGCTAG | 0.739 z-score
TCAGGTTTGAGTCTTCTACTGTGCTAG | -0.064 z-score
GACGAACTGGGGACTGGAAACGTGCTA | -0.343 z-score
TCATATCTCTGTTTTTGACTGTGCTAG | 1.37 z-score
TTAGGTCTCCTTATCTTTTAGTGCTAG | 2.24 z-score
GACCGTCTCGGTTTCGGGACGTGCTAG | 4.25 z-score
TTAGGTTTCGGGTATCGGATAGTGCTA | 4.5 z-score
TCATATATATTATATATTACTGTGCTA | 0.56 z-score
TTAGGTTTCATTATCCTTTAGTGCTAG | 5.02 z-score
GATGGTATTTGCCTGTGGTCGTGCTAG | -0.627 z-score

For quick reference, copied from above (study 4):
Strand | E-score
AGTCTCCC | -0.213
ACAGGCGC | -0.253
AAAGACAC | 0.0617
ATCTGAAT | 0.138
CGTTGGGC | -0.287
CCTCGGAC | -0.197
TGACCTAA | 0.102
ACGCCGTC | -0.208
TAAGGTAA | 0.185
ATCATCCG | -0.232
CTCGCGAG | -0.237
GAGATTGA | 0.123
ACACCAGC | -0.288
CATACCAC | -0.0213
